Assay results from different studies.
Numbered parts are unrelated; each lists some results of a single study.

Series 1
Target: Replicase polyprotein 1ab, main protease (rep, Severe acute respiratory syndrome coronavirus 2, UniProt P0DTD1)
Observed: enzyme activity
Action: inhibitor
Tested at: 20 µM
Notes: hit confirmation
Quantity: inhibition
Nc1ccc(O)c2ncccc12: 111%
CCCCc1nc(C)c(CC(=S)N(C)C)c(=O)n1Cc1ccc(-c2ccccc2-c2nnn[nH]2)cc1: 1%
CCCCC1C(=O)N(c2ccccc2)N(c2ccc(O)cc2)C1=O (stereo not shown): 39.7%
O=[N+]([O-])C(Br)(CO)CO: 100%

Series 2
Target: Interferon regulatory factor 3, full length, phosphomimetic (IRF3, Homo sapiens, UniProt Q14653, residues 1-427, S386D/S396D/S398D/S402D/T404D/S405D)
Method: protein-binding microarray
Form: double-stranded DNA, one strand shown
Medium: in vitro
Tested at: 2540 nM top
Notes: 60-bp whole probe
Added: salmon DNA 0.4 mg/ml
Baseline: random background probes
Direction: higher = stronger binding
Quantity: fitted relative affinity
All sequences stand within: GCCTAGCAC … GTCTTGATTCGCTTGACGCTGCTG
Construct (chain): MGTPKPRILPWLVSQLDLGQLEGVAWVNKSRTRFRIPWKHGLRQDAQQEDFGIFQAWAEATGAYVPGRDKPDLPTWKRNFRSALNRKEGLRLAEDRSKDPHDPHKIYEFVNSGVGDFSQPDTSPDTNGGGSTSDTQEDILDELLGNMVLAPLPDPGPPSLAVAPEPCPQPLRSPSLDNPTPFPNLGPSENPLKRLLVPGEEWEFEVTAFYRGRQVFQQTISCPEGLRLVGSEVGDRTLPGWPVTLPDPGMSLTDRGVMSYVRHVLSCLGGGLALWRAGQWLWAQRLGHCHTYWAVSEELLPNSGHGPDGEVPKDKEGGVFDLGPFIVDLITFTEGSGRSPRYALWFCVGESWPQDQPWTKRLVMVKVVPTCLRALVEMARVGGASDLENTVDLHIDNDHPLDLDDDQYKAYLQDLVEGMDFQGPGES
TTAGATTTCAGTTCCTATTAGTGCTAG: 3.3 z-score
TTATGACTGGACTTTCGGTTAGTGCTA: 1.19 z-score
GACGGACTGTGGACTGGGGACGTGCTA: -0.861 z-score
TCAATGCTGGCTTTTATACTGTGCTAG: -0.65 z-score
GACGATTTCGGGTTTCGACACGTGCTA: 2.73 z-score
CTGTACATCTATGTAGAAAGGTGCTAG: 0.495 z-score
TTAGGTTTCGACACTTGGTTAGTGCTA: 2.18 z-score
GACGGACTGGGGTTTCGGGTCGTGCTA: 0.871 z-score

Series 3
Cell line: HEK-293T
Observed: pseudovirus infection
Method: FDA-approved drug library screen
Organism: VSV pseudotyped with SARS-CoV-2 spike
Tested at: 10 µM
Time: 16 h
Baseline: vehicle-treated
Quantity: GFP-positive cells
NC(=O)c1cccnc1: 69.6%
CC(C)(C)C(=O)OCOP(=O)(COCCn1cnc2c(N)ncnc21)OCOC(=O)C(C)(C)C: 86%
NNC(=O)c1ccncc1: 95.3%
COc1cc(C)c(/C=C/C(C)=C/C=C/C(C)=C/C(=O)O)c(C)c1C: 78.4%

Series 4
Target: Ras GTPase-activating protein-binding protein 1, full length (G3BP1, Homo sapiens, UniProt Q13283)
UniProt Q13283, sequence (whole entry, looked up): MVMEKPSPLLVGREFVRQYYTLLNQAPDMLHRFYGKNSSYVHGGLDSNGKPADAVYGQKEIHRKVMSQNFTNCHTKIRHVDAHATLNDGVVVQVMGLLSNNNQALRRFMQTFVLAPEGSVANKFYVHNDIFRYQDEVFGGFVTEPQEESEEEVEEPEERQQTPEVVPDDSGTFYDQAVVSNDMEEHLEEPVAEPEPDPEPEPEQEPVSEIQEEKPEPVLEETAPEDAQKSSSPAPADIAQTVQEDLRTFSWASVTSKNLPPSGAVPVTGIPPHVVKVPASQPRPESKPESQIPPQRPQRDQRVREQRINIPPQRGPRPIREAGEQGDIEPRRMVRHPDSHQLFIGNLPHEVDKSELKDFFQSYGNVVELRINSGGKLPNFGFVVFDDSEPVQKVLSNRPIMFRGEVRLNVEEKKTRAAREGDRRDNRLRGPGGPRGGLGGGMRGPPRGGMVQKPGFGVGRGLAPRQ
Method: RNA Bind-n-Seq
Form: RNA
Medium: in vitro
Tested at: 200 nM
Notes: whole 134-nt RNA, ends assumed
Added: 150 mM KCl
Baseline: input library
Direction: higher = stronger binding
Quantity: log2 enrichment
All sequences stand within: GGGAGUUCUACAGUCCGACGAUC … UGGAAUUCUCGGGUGUCAAGG
ACCAUGCAGGUGGGCAUCUUUGGGAAGUGGGGCAAGGGGGGGAUAGGGAGGGGGGUAAUACUUUGGGAACAGGUGGUCCCAGGUCGUUUC: 1.32
AGUCCUGUGCUACACAUCGUAUGUACCGAAUCGGGUUUUUGGGAAAAAGGGAAAGGGAAAGUAUUAUGUUACGCCGUUCGGAUCUGCACU: -0.3
CCUCAAGUCCUGUGCUACACAUCGUAUGUACCGAAUCGGCGGGGCGGGCGGGAAAGUAUUAUGUUACGCCGUUCGGAUCUGCACUUCCAG: 1.24
GCAGGAAGUAAAAACAAAUGGAAAUGCUUCGGAUAGUGGCAGGGGUGGAGGUUGCUAAGGAAAGGGUGGGAUGGGAGUGGGUAAAGAGUU: 0.826
AAACUUUAGAGGAGGAUCUGAUGGAUAUGGCAGUGGACGUGGAUUUGGGGAUGGCUAUAAUGGGUAUGGAGGAGGACCUGGAGGUGGCAA: 0.457
UCAAGUCCUGUGCUACACAUCGUAUGUACCGAAUCGGUUUUUUUGGUUUGGUGGAAAGUAUUAUGUUACGCCGUUCGGAUCUGCACUUCC: -0.904
UUCACACCAAGCUGGGGAACAUCAAGACCUUAAACCUGGCAGGCAACCUCCUAGAGAGUCUGAGUGGCCUGCACAAGCUCUACUCACUGG: -1.3
AGUCCUGUGCUACACAUCGUAUGUACCGAAUCGGGGAAAAGGGAAAAGGGGAAAAGGGAAAGUAUUAUGUUACGCCGUUCGGAUCUGCAC: 0.0192

Series 5
Target: Replicase polyprotein 1ab, polymerase (rep, Severe acute respiratory syndrome coronavirus 2, UniProt P0DTD1)
Observed: enzyme activity
Action: inhibitor
Tested at: 20 µM
Quantity: inhibition
Cc1cc(/C=C2\SC(=O)N(c3ccccc3)C2=O)c(C)n1-c1cccnc1: -0.52%
Cc1oc2nc3c(c(NC(=O)CN4CCCC4=O)c2c1C)CCCC3: -6.79%
CS(=O)(=O)Nc1ccc(-c2coc3cc(OCc4cccc(C(=O)O)c4)ccc3c2=O)cc1: 3%
O=C1[C@@H]2[C@H]3CC[C@H](C3)[C@@H]2C(=O)N1C[C@@H]1CCCC[C@H]1CN1CCN(c2nsc3ccccc23)CC1: -1.6%
CCCCCC(C)N (stereo not shown): 0.44%
O=C(N[C@H]1CN2CCC1CC2)c1ccc2c(c1)OCCO2: -4.94%
NC[C@@](O)(c1ccc(Cl)cc1)c1ccc(-c2cn[nH]c2)cc1: 0.22%
C[C@@]1(O)[C@H](O)[C@@H](CO)O[C@H]1n1cnc2c(NC3CCCC3)nc(Cl)nc21: -0.63%
O=C1[C@H]2CCCC[C@H]2C(=O)N1CCCCN1CCN(c2nsc3ccccc23)CC1: 4.7%
Cc1c(N(C)C)c(=O)n(-c2ccccc2)n1C: 0.97%
C#C[C@]1(O)CC[C@H]2[C@@H]3CCC4=C(CCC(=O)C4)[C@H]3CC[C@@]21C: 23.6%
CC(=C\c1ccc(Cl)cc1)/C(C)=N/O: -6.11%
FC(F)(F)c1cccc(-c2noc(-c3cc(-c4ccccc4)c(C(F)(F)F)s3)n2)c1: 0.77%
CNC(=O)c1ccc2c(c1)CCO[C@H]2CCN1CCN(c2ccc(C(N)=O)cc2)CC1: 11.6%
O=C1Nc2ccc(Cl)cc2[C@@](C#CC2CC2)(C(F)(F)F)O1: 1.26%
CCc1c(O)cc(O)c(C(=O)c2ccc(OCCN3CCOCC3)c(OC)c2)c1CC(=O)N(CCOC)CCOC: -2.47%
O=C1N=C2SCCN2C(=O)C1Cc1ccc(Cl)cc1 (stereo not shown): 1.16%
O=c1ccc2c(OCCCCOc3ccccc3)c3ccoc3cc2o1: 1.69%
CC(C)C(=O)OC[C@@]1(N=[N+]=[N-])O[C@@H](n2ccc(N)nc2=O)[C@H](OC(=O)C(C)C)[C@@H]1OC(=O)C(C)C: -4.12%
CC(C)(COP(=O)(O)OP(=O)(O)OC[C@H]1O[C@@H](n2cnc3c(N)ncnc32)[C@H](O)[C@@H]1OP(=O)(O)O)[C@@H](O)C(=O)NCCC(=O)NCCS: -3.74%
N#Cc1c(-c2ccccc2)cc(-c2cc(Br)ccc2O)[nH]c1=O: 21.8%
CC(=O)Oc1c(C)cc(OCC(O)CNC(C)C)c(C)c1C (stereo not shown): 3.65%
O=C(O)/C=C/CO: -2.45%
O=C(O)CCCc1ccccc1: 3.87%
NC(=O)Cc1cccc(C(=O)c2ccccc2)c1N: -0.41%

Series 6
Target: Cyclic AMP-dependent transcription factor ATF-1, full length (ATF1, Homo sapiens, UniProt P18846, residues 1-271)
Method: protein-binding microarray
Form: hairpin DNA
Medium: in vitro
Tested at: not given
Notes: whole hairpin DNA, median over replicate spots
Baseline: not given
Direction: higher = stronger binding
Quantity: median fluorescence
Residues (chain): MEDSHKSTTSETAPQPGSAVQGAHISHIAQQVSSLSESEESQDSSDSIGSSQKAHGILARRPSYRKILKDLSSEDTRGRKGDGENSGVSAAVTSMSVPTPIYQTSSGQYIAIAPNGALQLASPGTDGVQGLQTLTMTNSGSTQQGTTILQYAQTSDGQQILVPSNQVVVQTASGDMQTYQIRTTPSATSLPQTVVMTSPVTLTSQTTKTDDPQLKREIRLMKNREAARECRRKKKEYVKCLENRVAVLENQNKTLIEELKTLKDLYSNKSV
GAGGCCGACGACGTCGTGCCTCCTGGCACGACGTCGTCGGCCTCACACTC (5mC at 9 15 35): 3660 a.u.
GAGGCCGACGACGTCGTGCCTCCTGGCACGACGTCGTCGGCCTCACACTC (5mC at 9 29 35): 5210 a.u.
GAGGCCGACGACGTCGTGCCTCCTGGCACGACGTCGTCGGCCTCACACTC (5mC at 9 12 15 29 35): 3420 a.u.

For quick reference, copied from above (series 3):
NC(=O)c1cccnc1: 69.6%
CC(C)(C)C(=O)OCOP(=O)(COCCn1cnc2c(N)ncnc21)OCOC(=O)C(C)(C)C: 86%
NNC(=O)c1ccncc1: 95.3%
COc1cc(C)c(/C=C/C(C)=C/C=C/C(C)=C/C(=O)O)c(C)c1C: 78.4%
